Published values collected from several papers.
Protocols differ between the studies behind these lines. ± marks the error that the study gave. Values after ≈ are worked out from the molar mass of the structure shown.
UniProt Q9UBN7, sequence (whole entry, looked up): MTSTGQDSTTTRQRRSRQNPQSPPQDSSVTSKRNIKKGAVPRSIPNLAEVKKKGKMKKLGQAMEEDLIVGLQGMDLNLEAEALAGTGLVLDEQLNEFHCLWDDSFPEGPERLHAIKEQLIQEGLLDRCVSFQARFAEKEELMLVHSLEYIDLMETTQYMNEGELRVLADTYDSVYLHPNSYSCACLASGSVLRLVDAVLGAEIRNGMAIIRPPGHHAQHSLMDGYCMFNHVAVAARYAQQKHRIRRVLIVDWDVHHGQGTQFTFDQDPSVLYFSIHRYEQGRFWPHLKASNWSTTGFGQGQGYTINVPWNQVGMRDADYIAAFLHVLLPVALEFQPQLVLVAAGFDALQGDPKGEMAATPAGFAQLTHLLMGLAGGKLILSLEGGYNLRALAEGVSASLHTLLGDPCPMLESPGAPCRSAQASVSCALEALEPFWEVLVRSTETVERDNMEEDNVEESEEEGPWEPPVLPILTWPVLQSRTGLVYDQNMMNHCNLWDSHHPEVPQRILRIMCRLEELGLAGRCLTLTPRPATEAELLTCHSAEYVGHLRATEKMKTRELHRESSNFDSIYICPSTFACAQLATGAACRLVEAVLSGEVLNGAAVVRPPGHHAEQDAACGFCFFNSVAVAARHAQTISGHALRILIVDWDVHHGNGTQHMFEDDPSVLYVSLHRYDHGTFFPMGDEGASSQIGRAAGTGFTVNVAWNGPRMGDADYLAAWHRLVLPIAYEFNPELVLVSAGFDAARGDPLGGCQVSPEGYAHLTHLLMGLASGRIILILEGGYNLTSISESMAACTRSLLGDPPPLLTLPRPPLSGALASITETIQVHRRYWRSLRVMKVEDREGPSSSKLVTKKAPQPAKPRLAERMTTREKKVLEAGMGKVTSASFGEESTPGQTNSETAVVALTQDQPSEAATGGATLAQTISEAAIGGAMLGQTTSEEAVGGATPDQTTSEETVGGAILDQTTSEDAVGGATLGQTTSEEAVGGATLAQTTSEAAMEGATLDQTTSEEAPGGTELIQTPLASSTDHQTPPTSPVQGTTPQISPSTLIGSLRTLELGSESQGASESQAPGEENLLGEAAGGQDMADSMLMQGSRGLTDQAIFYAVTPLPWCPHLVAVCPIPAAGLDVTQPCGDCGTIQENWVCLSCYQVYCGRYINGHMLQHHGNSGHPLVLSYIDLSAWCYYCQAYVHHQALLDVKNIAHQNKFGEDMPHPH
UniProt Q13188, sequence (whole entry, looked up): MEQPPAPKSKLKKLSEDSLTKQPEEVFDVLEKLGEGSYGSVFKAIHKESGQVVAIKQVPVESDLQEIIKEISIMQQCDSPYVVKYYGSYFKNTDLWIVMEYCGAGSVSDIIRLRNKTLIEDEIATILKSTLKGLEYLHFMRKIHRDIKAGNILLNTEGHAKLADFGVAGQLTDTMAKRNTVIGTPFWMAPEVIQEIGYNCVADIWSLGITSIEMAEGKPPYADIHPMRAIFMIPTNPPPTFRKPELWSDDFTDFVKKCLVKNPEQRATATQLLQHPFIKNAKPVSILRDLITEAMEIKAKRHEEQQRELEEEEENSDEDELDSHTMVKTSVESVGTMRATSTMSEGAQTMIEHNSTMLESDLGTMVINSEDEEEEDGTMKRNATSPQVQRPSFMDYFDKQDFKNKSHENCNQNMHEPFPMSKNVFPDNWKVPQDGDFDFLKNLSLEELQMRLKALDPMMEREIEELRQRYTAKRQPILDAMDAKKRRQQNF
UniProt Q92995, sequence (whole entry, looked up): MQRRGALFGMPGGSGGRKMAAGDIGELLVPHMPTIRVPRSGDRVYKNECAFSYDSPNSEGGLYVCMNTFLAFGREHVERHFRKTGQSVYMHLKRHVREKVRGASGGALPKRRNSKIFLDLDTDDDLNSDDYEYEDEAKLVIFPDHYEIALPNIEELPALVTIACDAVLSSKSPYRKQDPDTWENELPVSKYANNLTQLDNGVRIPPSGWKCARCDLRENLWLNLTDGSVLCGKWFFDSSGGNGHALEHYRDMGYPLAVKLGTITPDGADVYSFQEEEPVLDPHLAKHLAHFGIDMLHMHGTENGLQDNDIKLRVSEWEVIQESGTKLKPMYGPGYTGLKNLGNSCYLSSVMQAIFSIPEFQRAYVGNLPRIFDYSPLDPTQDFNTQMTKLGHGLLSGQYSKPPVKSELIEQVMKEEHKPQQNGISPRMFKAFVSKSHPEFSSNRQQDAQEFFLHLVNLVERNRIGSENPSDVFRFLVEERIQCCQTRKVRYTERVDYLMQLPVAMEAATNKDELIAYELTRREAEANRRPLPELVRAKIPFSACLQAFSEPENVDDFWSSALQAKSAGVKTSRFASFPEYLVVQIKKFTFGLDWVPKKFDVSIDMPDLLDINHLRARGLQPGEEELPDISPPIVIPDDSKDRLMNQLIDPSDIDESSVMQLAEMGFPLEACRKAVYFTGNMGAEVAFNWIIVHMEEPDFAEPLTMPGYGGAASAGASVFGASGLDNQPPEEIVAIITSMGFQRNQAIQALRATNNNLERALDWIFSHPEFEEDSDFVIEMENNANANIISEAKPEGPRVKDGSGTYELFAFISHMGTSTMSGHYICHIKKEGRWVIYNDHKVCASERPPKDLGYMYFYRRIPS

Compound = CC1=NN(c2ccc(C)cc2)C(=O)C1=NNc1ccc(S(N)(=O)=O)cc1; tested on = Saccharomyces cerevisiae; conditions = 100 µg/mL; quantity = glucose uptake; value = 57.5%
Compound = CC1(C)S[C@@H]2[C@H](NC(=O)Cc3ccccc3)C(=O)N2[C@H]1C(=O)O; tested on = Neisseria gonorrhoeae; test = broth microdilution; test system = WHO P; conditions = 1.5 h; quantity = MIC; value = 64 µg/mL (≈ 191 µM)
Compound = Nc1nc(-c2ccccc2)nc2[nH]nc(Nc3ccc(C(F)(F)F)cc3)c12; tested on = coxsackievirus B3; test system = 31-1-93, NMRI mice, CVB3 chronic myocarditis; conditions = oral, 100 mg/kg twice daily, day 6, dosed days 0 to 6, score scale 0 to 7; how to read = direction not given; quantity = clinical score; value = 0.1
Compound = O=C(O)Cc1cccnc1; tested on = Ubiquitin carboxyl-terminal hydrolase 13, ZnF-UBD domain (USP13, Homo sapiens, UniProt Q92995); quantity = Kd; value = > 1000 µM
Compound = CC(=O)NC[C@H]1CN(c2ccc(N3CCOCC3)c(F)c2)C(=O)O1; tested on = Streptococcus pyogenes; test system = 10 isolates; conditions = pH 7.0; quantity = MIC50; value = 1 µg/mL (≈ 2.96 µM)
Compound = CCCCCOc1ccc(-c2ccc(-c3ccc(C(=O)N[C@H]4C[C@@H](O)[C@@H](OCC[N+](C)(C)C)NC(=O)[C@@H]5[C@@H](O)[C@@H](C)CN5C(=O)[C@H]([C@@H](C)O)NC(=O)[C@H]([C@H](O)[C@@H](O)c5ccc(O)cc5)NC(=O)[C@@H]5C[C@@H](O)CN5C(=O)[C@H]([C@@H](C)O)NC4=O)cc3)cc2)cc1; tested on = Candida glabrata; test = CLSI broth microdilution; test system = 5592; quantity = MIC; value = 0.06 µg/mL
Compound = O=C(O)Cn1cc2ccccc2n1; tested on = Protein deacetylase HDAC6, ZnF-UBD domain (HDAC6, Homo sapiens, UniProt Q9UBN7); quantity = Kd; value = > 1000 µM
Compound = Cc1cc(OC(C)C)ccc1C(=O)C(C)(C)NC(=O)c1sccc1C; tested on = Helicobasidium mompa; test = mycelial growth; test system = PSA medium; conditions = 20 °C; quantity = EC50; value = > 50 µg/mL
Compound = CC[C@@H]1[C@H](F)C(=O)N[C@@H]1COc1nccc2cc(C(N)=O)c(OC)cc12; tested on = STK3 (Homo sapiens, UniProt Q13188); test = ATP probe binding, KiNativ profiling, refers to: MST2 Lys1 probe site; test system = THP-1 cell lysate; quantity = IC50; value = > 5 µM
Compound = CC1=NCCNC(=O)C1=NNc1ccc(S(N)(=O)=O)cc1; tested on = Saccharomyces cerevisiae; conditions = 10 µg/mL; quantity = glucose uptake; value = 23.54 ± 0.00184%
Compound = CN[C@H](CC(C)C)C(=O)N[C@H]1C(=O)N[C@@H](CC(N)=O)C(=O)N[C@H]2C(=O)N[C@H]3C(=O)N[C@H](C(=O)N[C@H](C(=O)O)c4cc(O)cc(O)c4-c4cc3ccc4O)[C@H](O)c3ccc(c(Cl)c3)Oc3cc2cc(c3O[C@@H]2O[C@H](CO)[C@@H](O)[C@H](O)[C@H]2O[C@H]2C[C@](C)(N)[C@H](O)[C@H](C)O2)Oc2ccc(cc2Cl)[C@H]1O; tested on = Streptococcus pyogenes; test system = 10 isolates; conditions = serum 25%; quantity = MIC50; value = 0.5 µg/mL (≈ 0.345 µM)
Compound = Cn1cc(-c2ccc(-c3cncc(Cl)c3N3CCC4(CCNC4=O)CC3)cc2)cn1; tested on = COLO 205; test = gene expression, microarray, refers to: TLR3 mRNA; conditions = concentration not given, 6 h; how to read = relative to: untreated cells; quantity = log2 fold change; value = 2.53
Compound = CC1=NN(c2cccc([N+](=O)[O-])c2)C(=O)C1=NNc1ccc(S(N)(=O)=O)cc1; tested on = Saccharomyces cerevisiae; conditions = 500 µg/mL; quantity = glucose uptake; value = 35.2%
